Published values from different studies.
Parts stem from different laboratories: compare values within a part only. Substitutions count along the parent as printed.

Sample 1 — technique: protein-binding microarray; form: double-stranded DNA, one strand shown; matrix: in vitro; concentration: 0.8 µM; notes: whole 60-bp probe, no competitor; reading: higher = stronger binding; shared flanks, not repeated: … GTCTTGATTCGCTTGACGCTGCTG
Target: Centromere-binding protein 1, full length, N-terminal tag (CBF1, Saccharomyces cerevisiae, UniProt P17106, residues 1-351)
Chain of UniProt P17106 (whole entry, looked up): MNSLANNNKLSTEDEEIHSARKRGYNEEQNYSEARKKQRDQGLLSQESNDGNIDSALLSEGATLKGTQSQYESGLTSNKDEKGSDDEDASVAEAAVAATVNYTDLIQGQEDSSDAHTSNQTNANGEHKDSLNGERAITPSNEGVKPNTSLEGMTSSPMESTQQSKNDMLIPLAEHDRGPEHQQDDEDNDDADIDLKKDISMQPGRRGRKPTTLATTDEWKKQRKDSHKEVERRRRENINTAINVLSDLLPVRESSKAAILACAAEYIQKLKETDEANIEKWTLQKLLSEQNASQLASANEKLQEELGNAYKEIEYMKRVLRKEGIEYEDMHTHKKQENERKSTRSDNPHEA
Strand | fluorescence intensity [a.u.]
CTATGCATTGATAATCTCCTGACCCTAGGTCGTTTC | 575
GAAACATTTTCACATCACGTTTCTTTTTTTTCTTAG | 3490
CTATGATCCTATATGCGTGTGTTCATACCTCTATTC | 543
CTACTATGACCTGTTCACGTGGCCAAATGTTCTTTC | 4430
CTAGGTTCCTATTTACACGCGGCGTTTATATTTTTC | 524
GAACGTCAGGACCGGAGTCAGGTGAAAAAATGTTAG | 977
CTAGAGCCCTCCCCCCACGAAGGTTTTTTCCTTTTC | 471
CTACTTTTTTTTCACGTGCTGCGCTGATGTAAGTTC | 5620
CTAATTAAAAAATATCACGACATTTATAAATCTTTC | 791
GAACTGATGCTTTCTCTGCTGATGCCAACACCATAG | 742
CTACGAGGCTGCGTTAGCGTCACCTAGAAATCCTTC | 527
GAACAAATTAGTGAAAACGTGGATATCAACTTGTAG | 655
GAAGCAGAATTTGTCCGTGCGCACATTTGCGTGTAG | 561
GAAACTGGCTGAGATCACGTGAATGGCTAATTATAG | 17100
GAAGGGTTACCTCATCTCACCTGTTTTGGAAATTAG | 560
GAATTATACGACTAATAGGTGATGCTCATATTCTAG | 515

Sample 2 — technique: aptamer microarray, sandwich; form: DNA with 2'F-ANA; matrix: in vitro; concentration: 200 nM; together with: Cy3 exosite-II aptamer, 400 nM; reading: higher = stronger binding; strand: GGTTGGTGTGGTTGG
Target: Prothrombin, mature alpha-thrombin (F2, Homo sapiens, UniProt P00734)
Notes: whole 15-mer aptamer, many near background
Modification | mean fluorescence intensity [a.u.]
2'F-ANA at 1 2 3 5 9 14 15 | 48.2
2'F-ANA at 1 2 4 5 6 7 8 9 10 12 15 | 50
2'F-ANA at 2 3 4 5 7 8 9 10 12 | 63.2
2'F-ANA at 1 2 3 6 7 8 9 12 14 | 91.3
2'F-ANA at 3 5 6 7 9 13 15 | 80.9
2'F-ANA at 1 2 3 5 6 7 10 | 46.2
2'F-ANA at 1 7 8 9 12 13 15 | 395
2'F-ANA at 1 2 3 4 6 8 12 13 15 | 265
2'F-ANA at 2 3 4 6 7 8 10 13 | 192
2'F-ANA at 1 2 3 7 12 13 15 | 402
2'F-ANA at 2 4 5 6 7 10 | 54.3
2'F-ANA at 2 3 4 7 9 11 15 | 500
2'F-ANA at 2 3 6 7 8 13 15 | 644
2'F-ANA at 4 5 9 | 79.9
2'F-ANA at 4 12 14 15 | 143
2'F-ANA at 1 2 3 7 8 9 14 | 82.4
2'F-ANA at 1 4 5 10 11 12 14 15 | 50

Sample 3 — target: CCNF, cyclin fold, Cln2 fusion (human); technique: yeast growth competition, sequencing; matrix: yeast; notes: strong parent motif; baseline: not given; reading: higher = stronger binding
Starting sequence: CDC6 docking peptide (human); TLKGRRLVFDNQL
Substitution | normalised enrichment score
TLKGRWLVFDNQL [R6W] | 2.2
ALKGRRLVFDNQL [T1A] | 8.39
TLKGRRLQFDNQL [V8Q] | 7.66
FLKGRRLVFDNQL [T1F] | 10.1
TAKGRRLVFDNQL [L2A] | 6.79
TLKGRRLVFDWQL [N11W] | 9.59

Other studies, line by line
Substance | target | assay | system | conditions | how to read | measurement | result
PhoQ, residues 284 288 289 292 302 303 AGGCYF | PhoP, residues 12 14 15 18 19 AQCLL (Escherichia coli, UniProt P23836) | Sort-seq, refers to: YFP reporter | E. coli | PhoQ-PhoP variant library, together with: 10 µM Mg2+ | baseline: high Mg2+ state, higher = stronger signaling | fold induction | 4.24

Some of these lines once more (sample 1):
Strand | fluorescence intensity [a.u.]
CTACGAGGCTGCGTTAGCGTCACCTAGAAATCCTTC | 527
GAACAAATTAGTGAAAACGTGGATATCAACTTGTAG | 655
GAAGCAGAATTTGTCCGTGCGCACATTTGCGTGTAG | 561
GAAACTGGCTGAGATCACGTGAATGGCTAATTATAG | 17100
GAAGGGTTACCTCATCTCACCTGTTTTGGAAATTAG | 560
